# Published values collected from several papers.
# Compare with care: the assays were run in different laboratories. ± gives the spread as reported.
# Cell line: Jurkat
Compound,assay,conditions,IC50 [µM]
CC(=O)Oc1cc2c(cc1C(C)C)C1(CC3C(C)(CN4C(=O)c5c(Cl)c(Cl)c(Cl)c(Cl)c5C4=O)CCCC23C)C23c4c5c6c7c8c9c(c%10c%11c2c2c4c4c%12c5c5c6c6c8c8c%13c9c9c%10c%10c%11c%11c2c2c4c4c%12c%12c5c5c6c8c6c8c%13c9c9c%10c%10c%11c2c2c4c4c%12c5c6c5c8c9c%10c2c45)C713 (stereo not drawn),"cell growth or viability, MTT",48 h,> 30
O=C1c2cccc3cccc(c23)C12NC(Cc1ccc(O)cc1)C([N+](=O)[O-])C2c1ccccc1 (stereo not drawn),"cell growth or viability, MTT",24 h,77.4
C1=CCCC=CCC1.F[P-](F)(F)(F)(F)F.[Pt+][c]1ccccc1P(=Nc1ccccc1)(c1ccccc1)c1ccccc1,"cell viability, MTT",24 h,0.53 ± 0.13
Cc1ccc(C2C([N+](=O)[O-])C(Cc3ccc(O)cc3)NC23C(=O)c2cccc4cccc3c24)cc1 (stereo not drawn),"cell growth or viability, MTT",48 h,37.8
Cc1ccc(C(C)C)cc1.O=C(N=P12CN3CN(CN(C3)C1)C2)c1[c-]cccc1.[Cl-].[Ru+2],"cell viability, MTT",24 h,17.7 ± 7.5
COc1ccc(C2C([N+](=O)[O-])C(Cc3ccc(O)cc3)NC23C(=O)c2cccc4cccc3c24)cc1 (stereo not drawn),"cell growth or viability, MTT",48 h,60.1
Cc1ccc(C(C)C)cc1.O=C(N=P(c1ccccc1)(c1ccccc1)c1ccccc1)c1ccccn1.[Cl-].[Cl-].[Ru+2],"cell viability, MTT",24 h,0.78 ± 0.08
O=C1c2cccc3cccc(c23)C12NC(Cc1ccc(O)cc1)C([N+](=O)[O-])C2c1cccc([N+](=O)[O-])c1 (stereo not drawn),"cell growth or viability, MTT",24 h,66.5
Cc1ccc(C(C)C)cc1.[Cl-].[Cl-].[Fe+2].[Ru+2].c1cc[cH-]c1.c1ccc(P(=NCc2ccccn2)(c2ccccc2)[c-]2cccc2)cc1,"cell viability, MTT",24 h,9.3 ± 0.07
CC1=CC2(C)C(=C(C)C3C4CC(C)CC(C)C4C4Oc5ccc(cc5)CC5(O)NC(=O)C(=C(O)C2C43)C5Nc2ncnc3c2ncn3C2OC(CO)C(O)C2O)C1C (stereo not drawn),"cell growth or viability, resazurin",72 h,4.4
CC[C@@H]1NC(=O)[C@H]([C@H](O)[C@H](C)Cc2nc3ccc(C(=O)c4ccccc4)cc3[nH]2)N(C)C(=O)[C@H](C(C)C)N(C)C(=O)[C@H](CC(C)C)N(C)C(=O)[C@H](CC(C)C)N(C)C(=O)[C@@H](C)NC(=O)[C@H](C)NC(=O)[C@H](CC(C)C)N(C)C(=O)[C@H](C(C)C)NC(=O)[C@H](CC(C)C)N(C)C(=O)CN(C)C1=O,"reporter gene, inhibitor, NFAT luciferase reporter",,1.3
CN(C)C(=S)[S][Pd][c]1ccccc1C(=O)N=P12CN3CN(CN(C3)C1)C2,"cytotoxicity, MTT","24 h, 1% DMSO",142 ± 9
O=C(N=P12CN3CN(CN(C3)C1)C2)c1cccc[c]1[Au]([Cl])[Cl],"cell viability, MTT",24 h,9.5 ± 0.07
O=C(N=P12CN3CN(CN(C3)C1)C2)c1cccc[c]1[Pd].O=C(N=P12CN3CN(CN(C3)C1)C2)c1cccc[c]1[Pd]([Br])[Br],"cytotoxicity, MTT","24 h, 1% DMSO",8.1 ± 1.1
O=C1c2cccc3cccc(c23)C12NC(Cc1ccc(O)cc1)C([N+](=O)[O-])C2c1ccc(Br)cc1 (stereo not drawn),"cell growth or viability, MTT",24 h,65.7

# A few entries again:
Compound,assay,conditions,IC50 [µM]
Cc1ccc(C(C)C)cc1.[Cl-].[Cl-].[Fe+2].[Ru+2].c1cc[cH-]c1.c1ccc(P(=NCc2ccccn2)(c2ccccc2)[c-]2cccc2)cc1,"cell viability, MTT",24 h,9.3 ± 0.07
